Experimental data pooled from the literature.
Values joined by “and” are separate records of one study, mostly repeats; a detail may differ.

COc1cc(OC)c(-c2coc3c4c(cc(O)c3c2=O)OC(C)(C)C=C4)cc1OC  viability (SW480; cell growth or viability, MTT; 100 µg/mL): 76.3%
COc1cc(N2CCN(C(=O)CN)CC2)ccc1Nc1ncc(Cl)c(Nc2ccccc2P(C)(C)=O)n1  viability (NCI-H3122; cell growth or viability, CCK-8; 0.5 µM, 48 h): 17% and 14%
O=C(C=Cc1ccccc1)OC1C=CC(O)C(O)(COC(=O)c2ccccc2)C1O (single isomer, unassigned; (-))  viability (SW480; cell growth or viability, MTT; 100 µg/mL): 83.4%
C=C(C)[C@H]1Cc2c(cc(O)c3c2O[C@@H]2COc4cc(OC)c(OC)cc4[C@@H]2C3=O)O1  viability (SW480; cell growth or viability, MTT; 100 µg/mL): 94.3%
O=C(c1ccc(C(=O)N2CCC(N3CCCCC3)CC2)cc1)N1CCC(N2CCCCC2)CC1  viability (HEK-293T/17; CellTiter-Glo; up to 100 µM, 24 h): not toxic
CC(C)=CCc1c(O)c(CC=C(C)C)c2occ(-c3ccc(O)c(O)c3)c(=O)c2c1O  viability (SW480; cell growth or viability, MTT; 100 µg/mL): 97.2%
COc1cc(N2CCN(C(=O)C3CCCN3)CC2)ccc1Nc1ncc(Cl)c(Nc2ccccc2P(C)(C)=O)n1 (centres unmarked)  viability (Ba/F3 EML4-ALK; cell growth or viability, CCK-8; 1 µM, 24 h): 5% and 6%
Cc1cc(Cl)cc(-c2ccnc3cc(CN4C(=O)C5C(C4=O)C5(C)C)sc23)c1C[C@@H]1CNCCO1 (some centres unmarked)  viability (CAPAN-1; cell growth or viability, SRB; 82.3 nM, 5 days): 63.9% and 90.9% and 73.6%
O=C(OC[C@@]1(O)C(=O)C=C[C@H]2[C@@H]1[C@H]1C=C[C@@H]2C(=O)[C@]1(O)COC(=O)c1ccccc1)c1ccccc1  viability (SW480; cell growth or viability, MTT; 6.25 µg/mL): 89.3%
CN1CCCNC(=O)c2cccc(c2)C(=O)NCCCN(C)CCCNc2cccc3c2C(=O)c2cccc(c2C3=O)NCCC1  viability (SAS; cell growth or viability, CCK-8; 1.5 µM, 48 h): 34.2%
COc1ccc(Cn2cc(CCO[C@@H]3O[C@H]4[C@H](OC[C@H]4O)[C@H]3O)nn2)cc1  viability (SU-DHL10; cytotoxicity, CellTiter-Glo; up to 30 µM, 72 h): not toxic

A few entries again:
C=C(C)[C@H]1Cc2c(cc(O)c3c2O[C@@H]2COc4cc(OC)c(OC)cc4[C@@H]2C3=O)O1  viability (SW480; cell growth or viability, MTT; 100 µg/mL): 94.3%
O=C(c1ccc(C(=O)N2CCC(N3CCCCC3)CC2)cc1)N1CCC(N2CCCCC2)CC1  viability (HEK-293T/17; CellTiter-Glo; up to 100 µM, 24 h): not toxic
